Measured values of several laboratories.
Lines come from different studies, so protocols differ. ± marks the error that the study gave.

With `COc1ccc(-c2csc(N/N=C(\C)c3cc(O)cc(O)c3)n2)cc1` the logD was 1.5 (1-octanol/phosphate buffer; 1 h, pH 7.4, room temperature).
`Oc1cccc(-c2cccc(O)n2)n1.[Cl-].[Cl-].[Ru+2].c1cnc2c(c1)c1c(c3cccnc32)OCCO1.c1cnc2c(c1)c1c(c3cccnc32)OCCO1` has a logD of 1.81 (shake flask; octanol/phosphate buffer; pH 7.40).
With `CC1C(=O)OC2C3C1CCC(C)C3(N)CCC2(C)O` (stereo not shown) the logD was -0.626 (pH 7.4).
`[Br-].c1ccc(-c2nn(-c3nc4ccccc4s3)[n+](-c3ccccc3)n2)cc1` gave a logD of 0.9 (shake-flask; octanol/PBS; pH 7.4).
`NC12CNCCNCC(NCc3ccc(CNC(=O)CCCC(=O)NCc4ccc(-c5nncnn5)cc4)cc3)(CNCCNC1)CNCCNC2.[64Cu+2]` gave a logD of -2.08 ± 0.06 (1-octanol/PBS; pH 7.4).
The logD of `Cc1ccccc1-c1cc(N2CCN(C(=O)CCC(=O)O)CC2)ccc1N(C)C(=O)C(C)(C)c1cc(C(F)(F)F)cc(C(F)(F)F)c1` is reported as 4.9 (octanol/acetate buffer; pH 5.0).
The logD of `[2H]C1([2H])C[C@@H](C[C@@H](C#N)NC(=O)[C@@H]2[C@@H]3[C@H](CN2C(=O)[C@@H](NC(=O)C(F)(F)F)C(C)(C)C)C3(C)C)C(=O)N1` is reported as 1.88.
With `C[C@H]1C[C@@H](Oc2cccc(F)n2)CCN1Cc1cnc(N[11C](C)=O)s1` the logD was 2.96 ± 0.01 (shake flask; 1-octanol/sodium phosphate buffer 0.15 M; pH 7.4).
`Oc1cccc(-c2cccc(O)n2)n1.[Cl-].[Cl-].[Ru+2].c1cnc2c(c1)ccc1cccnc12.c1cnc2c(c1)ccc1cccnc12` gave a logD of 1.3 (shake flask; octanol/phosphate buffer; pH 5.80).
`Oc1ccccc1-c1nn(-c2ccccc2)[n+](-c2ccccc2)n1.[Br-]` gave a logD of -0.1 (shake-flask; octanol/PBS; pH 7.4).
`C[C@H](Oc1cc(-c2cnn(C3CCN(CC[18F])CC3)c2)cnc1N)c1c(Cl)ccc(F)c1Cl` gave a logD of 1.43 (octanol/PBS; pH 7.4).
With `C=C(C)C(=O)Nc1ccc(-c2c(-c3ccc(Oc4nccc(C)n4)cc3)c3c(N)ncnc3n2C)cc1` the logD was 4.1 (chromatographic; pH 7.4).
`O=C([O-])CN1CCN(CC(=O)NCCCCCNC(=O)CCC(NC(=O)NC(CCC(=O)O)C(=O)O)C(=O)O)CCN(Cc2cccc(C(=O)[O-])n2)CC1.[64Cu+2]` (stereo not shown) has a logD of -1.19 ± 0.42 (shake-flask; 1-octanol/PBS; pH 7.4).
`CC(=O)OC(CC1CC(=O)NC(=O)C1)C1CC(C)(N=[N+]=[N-])CC(C)C1=O` (stereo not shown) has a logD of 1.1 (pH 7.4).
With `CC(C)(C)[C@H](NC(=O)C(F)F)C(=O)N1C[C@H]2[C@@H]([C@H]1C(=O)N[C@H](C#N)C[C@@H]1CCCNC1=O)C2(C)C` the logD was roughly 1.5.
`O=C(c1ccc(-c2cccc(C(F)(F)F)c2)cc1)N1CCN(c2ncccn2)CC1` gave a logD of 4.4 (pH 7.4).
For `COc1cc2nc(N3CCCCC3)nc(NC3CCN(C)CC3)c2cc1OC`, the logD was 1 (chromatographic; pH 3).
`O=C(c1ccc(F)cc1)C1CCN(C2Cc3c(O)cccc3CC2O)CC1` (racemic) has a logD of 1.78 (pH 7.4).
With `O=C(O)CC[C@H](NC(=O)N[C@@H](CCC(=O)NCCCCCNC(=O)CN1CCNCCN(Cc2cccc(C(=O)[O-])n2)CC1)C(=O)[O-])C(=O)O.[64Cu+2]` the logD was -1.66 ± 0.26 (shake-flask; 1-octanol/PBS; pH 7.4).
`Cc1ccccc1-c1cc(N2CCN(Cc3ccccc3)CC2)ccc1N(C)C(=O)C(C)(C)c1cc(C(F)(F)F)cc(C(F)(F)F)c1` gave a logD of greater than 5 (octanol/acetate buffer; pH 5.0).
`CC1CCC2C(C)C(=O)OC3C2C1CCC3(C)O` (stereo not shown) gave a logD of 2.31 (pH 7.4).
For `O=C(NCCNCCO)c1cn(Cc2ccc(F)cc2)c2cc(Cl)c(OCc3ccc(C(F)(F)F)cc3)cc2c1=O`, the logD was 2.9 (shake-flask; 1-octanol/PBS; 2 h, pH 7.4).
The logD of `O=C(O[C@H](CO)C(F)(F)F)N1C[C@@H]2[C@H](C1)[C@H]2c1ccn(-c2ccc([18F])nc2)n1` is reported as 2.66 ± 0.01 (shake flask; n-octanol/PBS).
`Oc1ccccc1-n1nc(-c2ccccc2)n[n+]1-c1ccccc1.[Br-]` gave a logD of 1.9 (shake-flask; octanol/PBS; pH 7.4).
For `CN1C(=O)C2(Nc3ccccc3C(=O)N2Cc2ccccc2)c2cc(Br)ccc21` (stereo not shown), the logD was 3.8 ± 0.2 (octanol/water; pH 7.4).

For quick reference, copied from above:
`O=C([O-])CN1CCN(CC(=O)NCCCCCNC(=O)CCC(NC(=O)NC(CCC(=O)O)C(=O)O)C(=O)O)CCN(Cc2cccc(C(=O)[O-])n2)CC1.[64Cu+2]` (stereo not shown) has a logD of -1.19 ± 0.42 (shake-flask; 1-octanol/PBS; pH 7.4).
`C[C@H](Oc1cc(-c2cnn(C3CCN(CC[18F])CC3)c2)cnc1N)c1c(Cl)ccc(F)c1Cl` gave a logD of 1.43 (octanol/PBS; pH 7.4).
